Measurements pooled from the literature.
Lines come from different studies, so protocols differ. ± gives the spread as reported.
Chain of UniProt Q16512 (whole entry, looked up): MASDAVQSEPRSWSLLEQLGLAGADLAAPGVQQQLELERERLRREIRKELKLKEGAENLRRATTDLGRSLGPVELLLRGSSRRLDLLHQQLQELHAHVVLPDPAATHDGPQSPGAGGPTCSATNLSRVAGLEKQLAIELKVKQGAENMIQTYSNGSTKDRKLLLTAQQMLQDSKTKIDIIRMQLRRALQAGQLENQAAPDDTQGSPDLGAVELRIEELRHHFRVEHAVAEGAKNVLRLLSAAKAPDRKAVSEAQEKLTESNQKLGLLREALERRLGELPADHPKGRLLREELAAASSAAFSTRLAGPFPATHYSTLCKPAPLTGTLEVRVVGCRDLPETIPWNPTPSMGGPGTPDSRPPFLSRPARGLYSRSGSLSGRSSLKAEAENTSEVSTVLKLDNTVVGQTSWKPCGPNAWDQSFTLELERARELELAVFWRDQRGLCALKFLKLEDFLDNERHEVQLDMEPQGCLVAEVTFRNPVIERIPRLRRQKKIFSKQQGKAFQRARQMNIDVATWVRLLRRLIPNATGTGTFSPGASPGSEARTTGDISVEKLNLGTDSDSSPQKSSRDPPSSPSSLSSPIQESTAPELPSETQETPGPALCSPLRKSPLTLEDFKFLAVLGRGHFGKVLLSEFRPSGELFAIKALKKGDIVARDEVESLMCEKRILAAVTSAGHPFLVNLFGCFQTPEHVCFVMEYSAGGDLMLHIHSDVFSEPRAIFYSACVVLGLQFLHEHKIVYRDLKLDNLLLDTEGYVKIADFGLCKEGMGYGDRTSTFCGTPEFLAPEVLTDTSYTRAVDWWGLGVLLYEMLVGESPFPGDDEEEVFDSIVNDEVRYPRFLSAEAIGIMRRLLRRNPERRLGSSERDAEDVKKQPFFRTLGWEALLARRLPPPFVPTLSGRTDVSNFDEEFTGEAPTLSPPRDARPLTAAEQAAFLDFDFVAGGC
Chain of UniProt P06276 (whole entry, looked up): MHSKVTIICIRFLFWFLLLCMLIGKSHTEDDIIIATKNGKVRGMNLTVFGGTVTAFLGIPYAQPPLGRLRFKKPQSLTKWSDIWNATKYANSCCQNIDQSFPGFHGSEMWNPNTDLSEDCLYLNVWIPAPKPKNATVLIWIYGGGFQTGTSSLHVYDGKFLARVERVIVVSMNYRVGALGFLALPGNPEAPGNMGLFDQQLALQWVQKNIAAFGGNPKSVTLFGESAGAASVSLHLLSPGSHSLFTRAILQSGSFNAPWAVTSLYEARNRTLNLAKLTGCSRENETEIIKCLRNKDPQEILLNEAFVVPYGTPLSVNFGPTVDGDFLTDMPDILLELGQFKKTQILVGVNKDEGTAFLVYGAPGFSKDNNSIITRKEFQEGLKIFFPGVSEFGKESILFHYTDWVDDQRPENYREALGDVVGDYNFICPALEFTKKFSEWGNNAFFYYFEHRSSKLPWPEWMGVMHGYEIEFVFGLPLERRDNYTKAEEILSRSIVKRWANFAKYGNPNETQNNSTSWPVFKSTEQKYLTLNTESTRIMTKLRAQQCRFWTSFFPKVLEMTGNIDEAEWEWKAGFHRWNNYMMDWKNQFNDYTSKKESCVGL

Compound | target or system | test | system | setting | how to read | endpoint | value
O[C@H]1CCCN[C@@H]1CCCn1cnc2c(Cl)c(Cl)ccc21 | – | – | healthy CYP2D6 extensive/ultrarapid metabolizers, plasma | oral, 150 mg multiple doses | – | median Cmax,ss | 0.224 µg/mL
CC(=O)c1c(C)c2cnc(Nc3ccc(C4CCN(CCS(C)(=O)=O)CC4)cn3)nc2n(C2CCCC2)c1=O | – | – | HR+/HER2- advanced breast cancer patients | oral, 100 mg twice daily, all grades,, monotherapy | – | patients with AST increased | 13.3%
CN[C@H]1CC[C@@H](c2ccc(Cl)c(Cl)c2)c2ccccc21 | – | – | CD-1 mouse, male, plasma | intraperitoneal, 0.3 mg/kg | – | AUC(0-t) | 0.0163 µg·h/mL
COc1ccc(-c2c(-c3ccc(C#N)c(F)c3)nc(N3CCC(N)CC3)n(C)c2=O)cc1F | – | item: Leukopenia | relapsed/refractory marginal zone lymphoma patients | oral, 60 mg, grade 3 to 4, dose expansion | – | treatment-related adverse event incidence | 0%
c1ccc2c(c1)cc1ccc3cccc4ccc2c1c34 | – | – | PDMS-water partitioning | PAH compilation | reference: maximum over minimum K | literature range factor | 11
C[C@@H](NC(=O)N1C(=O)[C@H](Cc2ccnc(N)c2)[C@H]1C(=O)O)C1CCCCC1 | – | – | healthy adult Chinese volunteers | continuous intravenous infusion, 1.5 mg/kg/h, 5-day infusion, CTCAE 5.0 grading | – | incidence of injection site erythema swelling | 0%
C=CCNc1c(O)cc2c(O)c1C[C@@H](C)C[C@H](OC)[C@H](O)[C@@H](C)/C=C(\C)[C@H](OC(N)=O)[C@@H](OC)/C=C\C=C(/C)C(=O)N2 | – | – | unresectable or metastatic STS, GIST, other | intravenous, 500 mg/m^2 | – | patients with nausea TEAE | 86%
CC/C(=C(\c1ccccc1)c1ccc(OCCN(C)C)cc1)c1ccccc1 | – | – | CD-1 mouse, male, plasma | intraperitoneal, 30 mg/kg | – | AUC(0-t) | 6.82 µg·h/mL
O=C(O)CCCOc1ccc(F)cc1-c1cc(-c2ccccc2C(F)(F)F)n(-c2ccccc2)n1 | – | item: Lymphocytes | Crl:CD(SD) rats, female, blood | iv, 25 µg/kg, 14 days | – | leukocyte differential | 79.1 ± 5.1%
C[C@]1(CO)Cc2ncn(-c3ccc(C#N)c(Cl)c3)c2C(=O)O1 | – | – | healthy Japanese adults, plasma | 80 mg once daily, after first dose, multiple dose | – | AUC(0-inf) | 28.3 µM·h
COc1ccc2nc3cc(Cl)ccc3c(Nc3cc(CN4CCCC4)c(O)c(CN4CCCC4)c3)c2n1 | – | – | mouse, blood | intraperitoneal, 57 mg/kg | – | mean corpuscular haemoglobin | 16.8 pg
CC[N+](CC)(CC)CCOc1ccc(/C=C/c2ccccc2)cc1 | Plasmodium falciparum | – | W2 | – | – | IC50 | 0.398 µM
Clc1ccc(-c2cc(Cl)c(Cl)c(Cl)c2)cc1Cl | – | – | PDMS-water partitioning | PCB compilation | reference: maximum over minimum K | literature range factor | 2
CC(C)C[C@@H]1NC(=O)CNC(=O)[C@H](CC(N)=O)NC(=O)[C@H](CCCNC(=N)N)NC(=O)[C@H]([C@@H](C)O)NC(=O)[C@@H]2CSSC[C@@H]3NC(=O)[C@H]([C@@H](C)O)NC(=O)[C@H](CCCCN)NC(=O)CNC(=O)[C@H](C(C)C)NC(=O)[C@@H]4CSSC[C@H](NC(=O)[C@H]([C@@H](C)O)NC(=O)[C@H](CSSC[C@H](NC(=O)[C@H](C(C)C)NC(=O)[C@@H]5CCCN5C1=O)C(=O)NCC(=O)N[C@@H](CCC(=O)O)C(=O)N[C@@H]([C@@H](C)O)C(=O)N4)NC(=O)CNC(=O)[C@@H]1CCCN1C(=O)[C@H]([C@@H](C)O)NC(=O)[C@H](CC(N)=O)NC3=O)C(=O)N[C@@H](CO)C(=O)N[C@@H](Cc1c[nH]c3ccccc13)C(=O)N1CCC[C@H]1C(=O)N[C@@H](C(C)C)C(=O)N2 | – | HPLC | ammonium bicarbonate | 180 µM, 7 days, pH 9.0, 25 °C, deamidation stability | – | remaining peptide | 95.3 ± 0.2%
c1ccc2c(c1)ccc1cc3c(ccc4ccccc43)cc12 | – | – | fresh water | 12 (unit not given), 20 °C, S30-2 sampler, 30 µm | – | log K(PDMS-water) | 5.2 ± 0.11
CO[C@H]1C[C@@H]2CC[C@@H](C)[C@@](O)(O2)C(=O)C(=O)N2CCCC[C@H]2C(=O)O[C@H]([C@H](C)C[C@@H]2CC[C@@H](OC(=O)NCCOCCOCCOCCOCCOCCOCCOCCOCCC(=O)N3CCc4cc(Cn5nc(-c6ccc7oc(N)nc7c6)c6c(N)ncnc65)ccc4C3)[C@H](OC)C2)C[C@@H](O)[C@H](C)/C=C(\C)[C@@H](O)[C@@H](OC)C(=O)[C@H](C)C[C@H](C)/C=C/C=C/C=C/1C | – | – | patients with advanced solid tumours | intravenous, 16 mg weekly, any grade | – | headache incidence | 50%
CC(C)CC(=O)OC[C@H]1O[C@@](C#N)(c2ccc3c(N)ncnn23)[C@H](O)[C@@H]1O | – | – | Sprague-Dawley rat, female, urine and faeces | 80 mg/kg, time not given | reference: dose | recovery in urine and faeces | 0.0518%
CCN1[C@@H](C(=O)NC23CCC(C(=O)O)(CC2)CC3)[C@H](c2cccc(Cl)c2F)[C@]2(C(=O)Nc3cc(Cl)ccc32)C12CCCCC2 | – | – | patients with advanced solid tumours | oral, dose not given, all doses | – | grade 3/4 thrombocytopenia incidence | 33.3%
Cn1cc(-c2nc(N[C@@H]3CCCC[C@@H]3N)c(F)c3c2C(=O)NC3)cn1 | – | item: gingival bleeding | patients with relapsed or refractory AML | oral, 60 mg once daily | – | hemorrhagic adverse events | 25%
CCCCCCCCCCCC[N+](C)(C)Cc1ccccc1.[Br-] | – | – | zebrafish larvae | 5 µM, intact compound, not light-degraded | – | mortality | ~80%
O=C(Nc1ccccc1)C1CCN(C(=O)Oc2cccnc2)CC1 | – | psychotropic effects VAS | healthy women | 20 mg | reference: pre-dose baseline, direction not given | change in Meaning score | 0.1

Compound | target or system | test | system | setting | how to read | endpoint | value
COc1ccnc(C(=O)N[C@H]2COC(=O)[C@H](Cc3ccccc3)[C@@H](OC(=O)C(C)C)[C@H](C)OC2=O)c1OCOC(=O)C(C)C | – | – | aerobic laboratory soil, dark | geometric mean of 4 soils, not normalised, modelling endpoint | – | DT50 | 3.5 days
CC(=O)N(C)[C@H]1CCN(C(=O)c2cnc3c(c2)C[C@](C)(c2ccc(F)cc2)N3)C1 | – | item: decreased appetite | human | oral, dose not given, with: midazolam | – | adverse event duration | 2 days
CN(C(=O)n1cnc(-c2ccc[n+]([O-])c2)c1)C1CCCCC1 | – | – | Wistar rat, cerebral cortex | oral, 10 mg/kg, 4 h, single dose | – | concentration | 80.3 ± 26.8 ng/g
C[C@]1(O)C[C@@](N)(c2ccc(-c3nc4n(c3-c3ccccc3)COc3ccncc3-4)cc2)C1 | – | – | human, advanced or metastatic solid tumours | 20 mg once daily, phase I dose escalation | – | patients with Diarrhea TEAE | 50%
CC1(C)C(/C=C(\Cl)C(F)(F)F)C1C(=O)OC(C#N)c1cccc(Oc2ccccc2)c1 (stereo not drawn) | – | item: CYP2C8 | human, age 1 year | – | – | enzyme contribution to clearance | 0.09%
O=S(=O)(Nc1ccccc1)c1ccc(NC(=S)Nc2ccccc2)cc1 | – | item: NE% | male mouse, blood | oral, 20 mg/kg daily, 14 days | – | blood cell fraction | 15.2%
O=C(O)CCC(CP(=O)(O)O)C(=O)O (stereo not drawn) | – | – | rat, plasma | 0.3 µg/mL, 28 days, -80 °C, long-term stability | reference: nominal concentration | relative error | -15.2%
O=S(=O)([O-])C(F)(F)C(F)(F)C(F)(F)C(F)(F)C(F)(F)C(F)(F)C(F)(F)C(F)(F)F.[K+] | – | – | male C57BL/6J mice, EtOH-fed | dose not given | reference: efavirenz and pair-fed | ratio, liver weight, to body weight | increased
Clc1ccc(Cl)c(-c2ccccc2Cl)c1 | – | – | PDMS-water partitioning | PCB compilation | reference: maximum over minimum K | literature range factor | 2
CC(C)[C@@H]1NC(=O)CNC(=O)[C@H](CC(N)=O)NC(=O)[C@H](CCCNC(=N)N)NC(=O)[C@H](Cc2ccc(O)cc2)NC(=O)[C@H](C(C)C)NC(=O)[C@@H](NC(=O)[C@@H](NC(=O)[C@H](CC(N)=O)NC(=O)[C@H](Cc2c[nH]c3ccccc23)NC(=O)[C@H](C)NC(=O)[C@H](Cc2ccccc2)NC(=O)CN)C(C)C)CSSC[C@@H](C(=O)N[C@@H](Cc2cnc[nH]2)C(=O)N[C@@H](CCCNC(=N)N)C(=O)N[C@@H](CCCNC(=N)N)C(=O)N[C@@H](C)C(=O)N[C@@H](CC(N)=O)C(N)=O)NC(=O)[C@H](C(C)C)NC(=O)[C@H](CCCNC(=N)N)NC1=O | – | – | ICR mice, serum | intraperitoneal, 5 mg/kg, day 5 | – | creatinine | 85.5 ± 3.97 µmol/L
Cc1ccc(F)c2cc(C(=O)N[C@@H]3CCC[C@H](N4CC[C@H](N(C)S(C)(=O)=O)C4)C3)[nH]c12 | – | – | CD1 mouse | oral, 100 mg/kg | – | fraction absorbed | > 1
C=CC(=O)Nc1cc(Nc2nccc(Nc3cc(Cl)c(F)cc3C(C)(C)O)n2)c(OC)cc1N1CC[C@@H](N(C)C)C1 | – | – | human patients | oral, 400 mg, treatment-emergent adverse events | – | patients with lipase increased | 20%
CC(C)C[C@@H]1NC(=O)CNC(=O)[C@H](CCCCN)NC(=O)[C@H](CCCNC(=N)N)NC(=O)[C@H]([C@@H](C)O)NC(=O)[C@@H]2CSSC[C@@H]3NC(=O)[C@H]([C@@H](C)O)NC(=O)CNC(=O)CNC(=O)[C@H](C(C)C)NC(=O)[C@@H]4CSSC[C@H](NC(=O)[C@H](CCCCN)NC(=O)[C@H](CSSC[C@H](NC(=O)[C@H](C(C)C)NC(=O)[C@@H]5CCCN5C1=O)C(=O)NCC(=O)N[C@@H](CCC(=O)O)C(=O)N[C@@H]([C@@H](C)O)C(=O)N4)NC(=O)CNC(=O)[C@@H]1CCCN1C(=O)[C@H]([C@@H](C)O)NC(=O)[C@H](CC(N)=O)NC3=O)C(=O)N[C@@H](CO)C(=O)N[C@@H](Cc1c[nH]c3ccccc13)C(=O)N1CCC[C@H]1C(=O)N[C@@H](C(C)C)C(=O)N2 | – | HPLC | water | 180 µM, 14 days, 37 °C, deamidation stability | – | remaining peptide | 100%
C[C@H]1CN(c2n[nH]c3nc(N[C@H]4CC[C@H](NS(=O)(=O)CCC(F)(F)F)CC4)ncc23)CCO1 | Serine/threonine-protein kinase N1 (PKN1, Homo sapiens, UniProt Q16512) | inhibitor, Kinobeads competition profiling | – | 0.8 µM | reference: vehicle | relative abundance | 1.11
N=C(N)NCCC[C@@H](NC(=O)[C@@H](N)Cc1ccccc1)C(=O)N[C@@H](Cc1ccccc1)C(=O)N[C@@H](CCCCN)C(N)=O | – | LC-MS | human | 5 mg, 23.83 h | – | mean amount excreted in urine | 111000 ng
COc1cc2c(Oc3ccc4[nH]c(C)cc4c3F)ccnc2cc1OCC1(N)CC1 | – | – | paediatric recurrent refractory sarcoma | 10 mg | – | grade 1 or 2 abdominal distension | 25%
CCN(CC)[C@@H]1CCc2c(F)ccc(O)c2C1 | Plasmodium falciparum | – | HB3 | – | – | IC50 | 1.26 µM
[O-][S+]1CCc2nc(N3CCC(c4ncc(Cl)cn4)CC3)nc(NC3(CO)CCC3)c21 (stereo not drawn) | – | item: gastrointestinal disorders | healthy male humans | 48 mg single dose | – | adverse event incidence | 16.7%
CN1CCN(c2ccc(Nc3nccc(-c4cccc(F)c4)n3)cc2C(F)(F)F)CC1 | – | – | Danio rerio embryos | 5 µM, 5 d | – | toxicity | 0%
CCc1ccc(CC/C=C/c2ccc3c(c2)C(=O)CC3)cc1 | – | – | Sprague-Dawley rat, male, serum | oral, 120 mg/kg/day, 14 days | – | chloride | 104 mM
CC1(N2CCC(n3c([C@@H]4CCCNC4)nc4ccccc43)CC2)CCCCCCC1 | Cholinesterase (BCHE, Homo sapiens, UniProt P06276) | inhibitor, fluorometric | – | – | – | IC50 | 11 ± 11.5 µM
